Published values pooled from the literature.
Every numbered part comes from another study and shows a few of its results, in no order. “And” joins repeats or separate records; there may be more than shown. Positions count from the first letter of the parent shown.
Sequence of UniProt P21802 (whole entry, looked up): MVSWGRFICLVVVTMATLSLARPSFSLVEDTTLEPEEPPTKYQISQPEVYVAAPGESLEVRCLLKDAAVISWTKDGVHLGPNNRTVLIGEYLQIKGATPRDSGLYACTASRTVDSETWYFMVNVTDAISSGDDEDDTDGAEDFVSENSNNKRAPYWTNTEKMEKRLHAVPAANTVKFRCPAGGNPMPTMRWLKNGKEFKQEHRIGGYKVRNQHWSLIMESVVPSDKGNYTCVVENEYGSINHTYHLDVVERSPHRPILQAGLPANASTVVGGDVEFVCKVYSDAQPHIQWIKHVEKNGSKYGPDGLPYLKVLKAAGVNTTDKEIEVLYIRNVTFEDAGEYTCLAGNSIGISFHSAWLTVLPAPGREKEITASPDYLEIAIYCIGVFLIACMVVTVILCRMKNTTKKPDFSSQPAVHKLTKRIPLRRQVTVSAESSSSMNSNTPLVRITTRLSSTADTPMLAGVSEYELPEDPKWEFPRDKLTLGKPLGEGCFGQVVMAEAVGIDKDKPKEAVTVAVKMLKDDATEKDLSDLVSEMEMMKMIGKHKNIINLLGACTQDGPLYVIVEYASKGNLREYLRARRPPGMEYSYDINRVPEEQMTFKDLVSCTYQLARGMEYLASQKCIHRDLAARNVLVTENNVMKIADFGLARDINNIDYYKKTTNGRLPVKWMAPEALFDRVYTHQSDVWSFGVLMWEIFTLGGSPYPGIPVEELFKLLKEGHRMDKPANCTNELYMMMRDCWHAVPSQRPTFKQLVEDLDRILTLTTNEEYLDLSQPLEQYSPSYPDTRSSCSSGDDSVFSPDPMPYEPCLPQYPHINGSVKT
Sequence of UniProt P14616 (whole entry, looked up): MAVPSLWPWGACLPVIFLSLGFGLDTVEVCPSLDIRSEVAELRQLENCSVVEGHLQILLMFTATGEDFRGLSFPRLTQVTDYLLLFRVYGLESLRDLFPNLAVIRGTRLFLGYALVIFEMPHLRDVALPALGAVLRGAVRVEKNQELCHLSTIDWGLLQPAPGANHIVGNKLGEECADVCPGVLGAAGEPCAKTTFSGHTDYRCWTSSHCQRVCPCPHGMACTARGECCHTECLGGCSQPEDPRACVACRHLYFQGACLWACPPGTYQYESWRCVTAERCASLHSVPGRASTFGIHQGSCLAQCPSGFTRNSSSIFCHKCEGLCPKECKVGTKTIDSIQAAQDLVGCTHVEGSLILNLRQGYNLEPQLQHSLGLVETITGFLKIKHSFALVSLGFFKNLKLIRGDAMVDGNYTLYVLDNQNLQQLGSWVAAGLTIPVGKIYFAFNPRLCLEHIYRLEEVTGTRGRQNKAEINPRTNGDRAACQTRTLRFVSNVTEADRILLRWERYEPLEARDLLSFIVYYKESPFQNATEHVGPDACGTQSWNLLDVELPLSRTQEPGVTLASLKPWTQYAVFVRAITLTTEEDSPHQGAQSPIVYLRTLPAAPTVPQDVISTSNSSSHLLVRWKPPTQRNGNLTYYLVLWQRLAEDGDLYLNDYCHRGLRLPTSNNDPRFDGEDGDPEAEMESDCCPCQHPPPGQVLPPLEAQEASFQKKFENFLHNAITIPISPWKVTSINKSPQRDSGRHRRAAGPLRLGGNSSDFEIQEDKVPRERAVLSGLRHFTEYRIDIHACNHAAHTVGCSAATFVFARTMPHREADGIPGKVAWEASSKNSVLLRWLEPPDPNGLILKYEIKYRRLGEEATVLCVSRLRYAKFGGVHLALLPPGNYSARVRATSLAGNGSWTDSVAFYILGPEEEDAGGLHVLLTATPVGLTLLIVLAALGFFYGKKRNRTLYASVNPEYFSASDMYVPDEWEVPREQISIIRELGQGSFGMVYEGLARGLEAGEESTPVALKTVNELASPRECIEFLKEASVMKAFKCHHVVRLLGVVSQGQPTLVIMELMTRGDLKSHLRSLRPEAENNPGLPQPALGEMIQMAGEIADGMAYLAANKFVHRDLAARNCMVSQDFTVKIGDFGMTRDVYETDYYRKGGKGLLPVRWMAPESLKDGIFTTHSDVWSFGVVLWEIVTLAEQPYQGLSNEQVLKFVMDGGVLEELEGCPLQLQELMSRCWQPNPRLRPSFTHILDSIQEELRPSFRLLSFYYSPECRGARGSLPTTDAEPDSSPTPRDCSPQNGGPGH
Sequence of UniProt O75385 (whole entry, looked up): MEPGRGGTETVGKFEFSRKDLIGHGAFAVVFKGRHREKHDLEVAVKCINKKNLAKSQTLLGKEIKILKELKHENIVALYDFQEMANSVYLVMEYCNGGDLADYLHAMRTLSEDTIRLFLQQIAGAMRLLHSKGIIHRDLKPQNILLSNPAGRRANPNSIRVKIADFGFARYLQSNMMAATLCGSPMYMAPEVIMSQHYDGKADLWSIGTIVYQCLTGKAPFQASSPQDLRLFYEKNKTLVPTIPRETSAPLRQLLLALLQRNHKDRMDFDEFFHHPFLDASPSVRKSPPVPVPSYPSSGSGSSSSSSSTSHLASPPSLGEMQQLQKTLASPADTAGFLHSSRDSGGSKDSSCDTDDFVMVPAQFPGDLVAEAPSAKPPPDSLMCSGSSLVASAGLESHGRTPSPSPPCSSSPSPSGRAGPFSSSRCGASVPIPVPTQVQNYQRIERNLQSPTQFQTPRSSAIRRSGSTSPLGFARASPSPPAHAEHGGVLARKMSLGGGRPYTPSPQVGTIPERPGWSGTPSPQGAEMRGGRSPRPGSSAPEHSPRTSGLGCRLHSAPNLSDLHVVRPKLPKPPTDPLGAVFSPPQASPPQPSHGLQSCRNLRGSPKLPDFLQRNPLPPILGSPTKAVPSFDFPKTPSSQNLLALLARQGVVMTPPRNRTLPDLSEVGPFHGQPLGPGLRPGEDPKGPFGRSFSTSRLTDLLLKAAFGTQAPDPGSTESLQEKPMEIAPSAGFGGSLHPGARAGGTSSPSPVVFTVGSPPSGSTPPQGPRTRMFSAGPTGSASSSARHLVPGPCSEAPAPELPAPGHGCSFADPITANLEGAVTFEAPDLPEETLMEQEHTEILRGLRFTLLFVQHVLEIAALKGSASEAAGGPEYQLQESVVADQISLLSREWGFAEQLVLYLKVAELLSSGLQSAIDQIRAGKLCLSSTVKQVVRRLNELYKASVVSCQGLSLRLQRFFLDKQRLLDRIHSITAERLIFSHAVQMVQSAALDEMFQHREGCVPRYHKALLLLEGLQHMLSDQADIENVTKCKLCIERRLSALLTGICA
Sequence of UniProt Q04771 (whole entry, looked up): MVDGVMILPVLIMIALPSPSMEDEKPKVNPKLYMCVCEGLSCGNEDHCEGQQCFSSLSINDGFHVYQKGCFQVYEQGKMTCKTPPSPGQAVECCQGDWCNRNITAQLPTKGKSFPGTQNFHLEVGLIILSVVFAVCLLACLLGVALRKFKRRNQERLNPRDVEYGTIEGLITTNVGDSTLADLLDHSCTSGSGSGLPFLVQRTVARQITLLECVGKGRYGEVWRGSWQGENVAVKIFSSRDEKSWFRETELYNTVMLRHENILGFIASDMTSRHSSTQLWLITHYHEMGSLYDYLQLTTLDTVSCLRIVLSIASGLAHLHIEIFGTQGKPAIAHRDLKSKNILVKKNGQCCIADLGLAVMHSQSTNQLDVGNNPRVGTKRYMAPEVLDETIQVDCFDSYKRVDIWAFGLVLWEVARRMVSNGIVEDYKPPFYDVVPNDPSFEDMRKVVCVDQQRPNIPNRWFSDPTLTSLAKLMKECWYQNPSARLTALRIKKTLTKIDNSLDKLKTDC

Block 1 — effect on: ligand displacement; concentration: 10 µM; quantity: inhibition
Target: 5-hydroxytryptamine receptor 2C (HTR2C, Homo sapiens, UniProt P28335)
Sequence of UniProt P28335 (whole entry, looked up): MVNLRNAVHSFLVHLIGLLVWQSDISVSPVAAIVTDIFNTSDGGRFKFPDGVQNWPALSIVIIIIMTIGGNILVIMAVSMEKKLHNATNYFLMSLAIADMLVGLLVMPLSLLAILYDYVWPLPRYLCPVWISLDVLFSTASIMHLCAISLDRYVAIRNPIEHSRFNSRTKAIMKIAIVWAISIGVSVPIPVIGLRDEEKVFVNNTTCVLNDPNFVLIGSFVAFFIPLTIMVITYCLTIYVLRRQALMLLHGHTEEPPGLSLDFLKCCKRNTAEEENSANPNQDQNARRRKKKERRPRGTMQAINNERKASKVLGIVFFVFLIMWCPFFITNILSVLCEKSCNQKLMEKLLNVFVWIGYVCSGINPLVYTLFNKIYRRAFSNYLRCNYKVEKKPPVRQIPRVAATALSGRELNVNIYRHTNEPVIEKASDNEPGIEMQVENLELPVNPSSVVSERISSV
O=C(O)[C@H]1[C@H](Cn2nnc3ccccc3c2=O)CC[C@@H]1C(=O)c1ccc(OCCC2CCOCC2)cc1: 22.4%
Cn1cc(Cl)c2c(Oc3c(F)cc(Nc4cc(Cl)nc(N)n4)cc3F)ccnc21: 2.72%
CC1=C(C#N)C(c2ccc3[nH]nc(C)c3c2)C(C#N)=C(C)N1: 22.4%
CC(=O)N1CCC(c2ccc(C(=O)NC(=N)N)cc2C(F)(F)F)CC1: 2.59%
COc1ccc2cc(OCC3(C(=O)O)CN(C(=O)c4ccc(F)cc4)C3)ccc2c1: 12.3%
CC(=O)c1c(NS(C)(=O)=O)c2cc(-c3ccc(Cl)cc3)c(-c3ccc(Cl)cc3Cl)nc2n(C)c1=O: 81.8%
CCS(=O)(=O)c1cc2cc(C[C@@](O)(CC(C)(C)c3ccc(F)cc3C(N)=O)C(F)(F)F)[nH]c2cn1: 7.33%
CN(C)c1ncnc(-c2ccc3nc(Nc4cc(CN5CCN(C(=O)CC(F)(F)F)CC5)ccn4)[nH]c3c2)c1Cl: 0.02%
O=C(c1ccc(F)cc1)N1CC(COc2ccc(Br)cc2)(C(=O)O)C1: 30.2%
Cc1ncc(-c2cc(Cl)ccc2F)cc1-n1c(=O)n(CC(N)=O)c2ccccc21: 10.2%
O=C(O)c1cc(-c2ccc(C3CCNCC3)cc2)c2ccc(-c3ccc(C(F)(F)F)cc3)cc2c1: 11.2%
O=C1NC(c2ccccn2)Sc2ccccc21 (centres unmarked): 3.98%
O=C(NCCCC1CCCCC1)c1ccc(CNC(=O)c2cnn(-c3ccccc3)c2C(F)(F)F)cc1: 6.21%
O=c1nc(-c2ccccn2)sc2ccccc12: 12.2%
NS(=O)(=O)c1cc(NC(=O)C2(c3ccccc3Cl)CC2)ccc1Oc1cccc(Cl)c1: 19.5%
O=C(Nc1cccnn1)N1CC(CC=Cc2cncc(Oc3ccc(C(F)(F)F)cn3)n2)C1: 1.89%

Block 2 — quantity: clonogenic survival
SMILES: CO[C@@H]1[C@@H](OC(N)=O)[C@@H](O)[C@H](Oc2ccc3c(O)c(NC(=O)c4ccc(O)c(CC=C(C)C)c4)c(=O)oc3c2C)OC1(C)C
RPE-1 BRCA1-/- PARPi-resistant R2; 50 µM, 12 to 14 days: 22.6% and 39.7% and 27.5%
RPE-1 wild type; 100 µM: 51.4% and 54.4% and 43.6%
RPE-1 wild type; 10 µM, unit not given; baseline: untreated: 1.05 and 1.14 and 0.887

Block 3 — organism: Cryptosporidium parvum; method: time-kill; cells: HCT-8; strain: nanoluciferase-expressing; reading: higher = more parasites; quantity: parasite luminescence
SMILES: CNC(=O)c1ccc(-c2cnn3ccc(C(=O)N(C)c4ccc(Cl)c(C(=O)OC)c4)cc23)cc1
0.02743 µM, 24 h: 71100 RLU and 76000 RLU
0.02743 µM, 72 h: 27300 RLU and 17300 RLU
0.2469 µM, 48 h: 26100 RLU and 27300 RLU
0.00102 µM, 8 h: 91700 RLU and 85200 RLU

Block 4 — effect on: enzyme activity; action: inhibitor; concentration: 0.5 µM; baseline: control; quantity: remaining activity
SMILES: COc1ccc2c(c[n+](C)c3c4cc5c(cc4ccc23)OCO5)c1OC
ACVR1 (Homo sapiens, UniProt Q04771): 93.2%
ULK1 (Homo sapiens, UniProt O75385): 109%
INSRR (Homo sapiens, UniProt P14616): 91.8%
FGFR2 (Homo sapiens, UniProt P21802): 101%

Block 5 — target: vanadate, free oxyanion; method: microfluidic competitive inhibition; medium: in vitro, cell-free expressed; concentration: not given; reading: lower = stronger binding; quantity: oxyanion analog dissociation constant
Setting: derived from inhibition constants, unchanged parent 676 nM
Starting sequence: PafA, mature enzyme, eGFP fusion (Elizabethkingia meningoseptica, UniProt Q9KJX5); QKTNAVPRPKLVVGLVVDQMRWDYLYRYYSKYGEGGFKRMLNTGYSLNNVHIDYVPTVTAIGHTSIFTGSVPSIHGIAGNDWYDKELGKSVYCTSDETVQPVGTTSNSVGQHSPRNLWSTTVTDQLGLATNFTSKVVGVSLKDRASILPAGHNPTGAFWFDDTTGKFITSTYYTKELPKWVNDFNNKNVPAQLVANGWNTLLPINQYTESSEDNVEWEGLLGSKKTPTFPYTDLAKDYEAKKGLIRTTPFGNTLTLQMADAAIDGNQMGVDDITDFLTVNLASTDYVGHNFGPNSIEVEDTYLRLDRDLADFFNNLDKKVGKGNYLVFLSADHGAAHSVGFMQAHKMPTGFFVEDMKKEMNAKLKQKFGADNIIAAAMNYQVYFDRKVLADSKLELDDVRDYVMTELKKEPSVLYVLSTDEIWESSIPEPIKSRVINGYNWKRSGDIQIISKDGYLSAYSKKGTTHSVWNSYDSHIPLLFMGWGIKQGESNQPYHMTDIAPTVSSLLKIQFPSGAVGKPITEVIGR
V13G: 647 nM
L329V: 1990 nM
R115V: 601 nM
H475V: 1070 nM
L193V: 581 nM
A78G: 612 nM
N205G: 794 nM
P190V: 789 nM

Mixed results
CCN1CC2(COC)CCC(OC)C34C5CC6(O)C(OC)CC(OC(C)=O)(C5C6C(=O)c5ccc(OC)cc5)C(C(OC)C23)C14 (centres unmarked)  viability (A-375; 100 µM, 18 h): 84.1%
COc1ccc(-c2c(Nc3ccccn3)[nH]c3c(C4=CCCCC4)c(-c4ccccc4)nn3c2=O)cc1  back pain incidence (patients with advanced malignancies; oral, treatment-emergent adverse events): 10%
C[C@@H]1C[C@@H]([C@H](O)CC2CC(=O)NC(=O)C2)C(=O)[C@@H](C)C1  viability (A-375; 100 µM, 18 h): 77%
